Measured values of several laboratories.
Compare with care: the assays were run in different laboratories. Several values in a cell are separate wells, animals, samples, runs or records. Numbers after ± are the reported error.
folP: Dihydropteroate synthase (folP, Bacteria, UniProt P0AC13)
T1: RNA aptamer; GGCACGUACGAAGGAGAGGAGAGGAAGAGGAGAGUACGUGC

| SMILES | target | test | test system | setting | scale | endpoint | result |
| --- | --- | --- | --- | --- | --- | --- | --- |
| COCC[C@H](NC(=O)[C@H](CCC(=O)O)NC(=O)[C@H](CCCNC(=N)N)NC(=O)[C@H](C)NC(=O)[C@H](Cc1c[nH]c2ccccc12)NC(=O)[C@H](CCC(=O)O)NC(=O)[C@H](CCC(=O)O)NC(=O)[C@H](CCC(=O)O)NC(C)=O)C(=O)NCC(=O)N[C@@H](C)C(=O)N[C@@H](CCC(N)=O)C(=O)N[C@@H](CC(C)C)C(=O)N[C@@H](CCCNC(=N)N)C(=O)N[C@@H](CCCNC(=N)N)C(=O)N[C@@H](C)C(=O)N[C@@H](C)C(=O)N[C@@H](CC(=O)O)C(=O)N[C@@H](CC(=O)O)C(=O)N[C@@H](CC(C)C)C(=O)N[C@@H](CC(N)=O)C(=O)N[C@@H](C)C(=O)N[C@@H](CCC(N)=O)C(=O)N[C@@H](Cc1ccc(O)cc1)C(=O)N[C@@H](CCC(=O)O)C(=O)N[C@@H](CCCNC(=N)N)C(=O)N[C@@H](CCCNC(=N)N)C(=O)N[C@@H](CCCNC(=N)N)C(N)=O | Induced myeloid leukemia cell differentiation protein Mcl-1 homolog, residues 152-308 (Mus musculus, UniProt P97287) | binding, SPR | – | 0.2% DMSO | – | koff | 0.0282 s⁻¹ |
| C#CCCCCNC(=O)c1ccc(N(C(=O)C=C)c2ccc(Br)cc2)cc1 | V-type proton ATPase catalytic subunit A (ATP6V1A, Homo sapiens, UniProt P38606) | mass spectrometry profiling | H460 cell lysate | 100 µM over 10 µM, UniProt P38606 | reference: high over low concentration | reactivity ratio | 2.87 |
| COC(=O)[C@@]1(Cc2ccccc2)C=C(C(=O)OC(C)(C)C)C(=O)CC1 | Mitogen-activated protein kinase 14 (MAPK14, Homo sapiens, UniProt Q16539, C162A) | peptide binding, fluorescence polarization | – | 500 µM | – | fraction bound | 0.108 |
| N#CN1CC[C@H](C(=O)Nc2nc3c(s2)CN(C(=O)Cn2cc(COCCOCCOCCOCCNC(=O)CCCC[C@@H]4SC[C@@H]5NC(=O)N[C@@H]54)nn2)CC3)C1 | Ubiquitin-like modifier-activating enzyme 1 (UBA1, Homo sapiens, UniProt P22314) | probe binding, affinity probe, neutravidin pull-down LC-MS/MS | HEK293T, cell lysate | 5 µM, 1 h, mean of three replicates, unit not given | higher = more pulled down | iBAQ abundance | 665000 |
| C=C1C[C@@]2(C(=O)OC)C=C(C(=O)Nc3cccc(C(=O)Nc4ccc(Nc5nccc(-c6cccnc6)n5)c(C)c4)c3)C(=O)[C@@H]1C2 | Mitogen-activated protein kinase 8 (MAPK8, Homo sapiens, UniProt P45983, C116S) | binding, SPR | – | 100, 300, 1000 nM, 1:1 binding model | – | koff | 0.0797 s⁻¹ |
| CC(C)[C@@H]1NC(=O)[C@H](Cc2ccccc2)NC(=O)CSC[C@@H](C(N)=O)NC(=O)[C@H](CCC(=O)O)NC(=O)[C@H](CO)NC(=O)[C@H](Cc2c[nH]c3cccc(Cl)c23)NC(=O)[C@H](C2CCCCC2)NC(=O)[C@H](C(C)C)NC(=O)[C@H](Cc2ccc(O)cc2)NC(=O)[C@H](CC(=O)O)NC(=O)[C@H](Cc2c[nH]c3ccccc23)NC(=O)[C@H](Cc2ccc(N)nc2)NC(=O)[C@H](Cc2c[nH]c3ccc(Cl)cc23)NC(=O)[C@H](CCC(=O)O)NC1=O | Interleukin-1 receptor-like 2 (IL1RL2, Homo sapiens, UniProt Q9HB29) | reporter gene (SEAP), inhibitor, HEK-Blue IL-36R reporter | HEK-Blue IL-36R cells | 0.14 µM, 6 h, with: IL-36γ 0.1 ng/mL | – | remaining activity | 34.4% |
| Cn1nc(CCC#N)c(=O)c2c(=O)[nH]c(N)nc21 | folP | CETSA HiBiT | Escherichia coli, whole cells | concentration not given | reference: whole cell over lysate ΔTm | target engagement efficiency | 71.5% |
| Cn1c(=O)n(C2CCC(=O)NC2=O)c2ccc(C3CCN(CC(=O)Nc4cccc(CS(=O)(=O)N5CC[C@H](Nc6cccc(-c7sc(C(=O)O)c(OCC(=O)O)c7Cl)c6)CC5(C)C)c4)CC3)cc21 (stereo partly shown) | Tyrosine-protein phosphatase non-receptor type 1 (Mus musculus, UniProt P35821) | degrader, Western blot | C57BL/6 mouse, splenocytes | intravenous, 100 mg/kg every 4 days, three doses, 2 h after final dose | – | remaining protein | 13% |
| NCc1cc2c(cc1F)C(=O)N(C1CCC(=O)NC1=O)C2 (stereo not shown) | DNA-binding protein Ikaros (Homo sapiens, UniProt Q13422) | degrader, Western blot | NCI-H929 | 24 h | – | Dmax | 1% |
| CCCCCC(O)/C=C/C=O (stereo not shown) | Alpha-adducin (ADD1, Homo sapiens, UniProt P35611) | competitive isoTOP-ABPP, measured: ADD1 cysteine peptide | Ramos soluble proteome | 100 µM, with: iodoacetamide probe | reference: DMSO over compound-treated, higher = stronger cysteine blockade | isoTOP-ABPP competition ratio | 1.7 |
| Fc1ccc(Nc2nc(NC3CCCCC3)c3cc(C(F)(F)F)ccc3n2)cc1F | Beta-2 adrenergic receptor (ADRB2, Homo sapiens, UniProt P07550, F133L) | β-arrestin2 recruitment, antagonist, BRET | – | mutant F133L | reference: isoprenaline maximal response | maximal inhibition | 12% |
| CC[C@H](C)[C@@H]1NC(=O)[C@H](Cc2ccccc2)NC(=O)[C@H](CCC(=O)O)NC(=O)[C@H](CCCNC(=N)N)NC(=O)CNC(=O)[C@@H](NC(=O)[C@H](CC(C)C)NC(=O)[C@H](CCCNC(=N)N)NC(=O)[C@@H](NC(=O)CNC(=O)[C@H](Cc2ccc(O)cc2)NC(=O)[C@@H]2CCCN2C(=O)[C@H](C)NC(=O)[C@H](C)NC(=O)[C@@H](N)CCCNC(=N)N)C(C)C)CSSC[C@@H]2NC(=O)[C@@H](NC(=O)[C@H](CO)NC(=O)[C@H](CO)NC(=O)[C@H](CO)NC(=O)[C@H](CC(C)C)NC(=O)CNC(=O)[C@H](C)NC(=O)[C@H](CC(C)C)NC(=O)[C@@H](NC(=O)[C@@H](N)CC(=O)O)C(C)C)CSSC[C@H](NC(=O)CNC(=O)[C@H](Cc3c[nH]c4ccccc34)NC(=O)[C@H](CCCCN)NC2=O)C(=O)N[C@@H](CO)C(=O)N[C@@H](CCCCN)C(=O)N[C@@H](CO)C(=O)N[C@@H](CCC(=O)O)C(=O)N[C@@H]([C@@H](C)CC)C(=O)N[C@@H](CO)C(=O)N[C@@H](CO)C(=O)N[C@@H](CC(C)C)C(=O)N[C@H](C(=O)O)CSSC[C@@H](C(=O)NCC(=O)NCC(=O)N[C@@H](CO)C(=O)N[C@@H](CCCNC(=N)N)C(=O)N[C@@H](Cc2c[nH]c3ccccc23)C(=O)O)NC(=O)[C@H]([C@@H](C)O)NC(=O)[C@H](Cc2ccccc2)NC(=O)[C@H]([C@@H](C)CC)NC(=O)[C@H](C(C)C)NC(=O)[C@H](C)NC(=O)[C@H](CCCNC(=N)N)NC1=O | Relaxin-3 receptor 2 (RXFP4, Homo sapiens, UniProt Q8TDU9, F105A) | – | – | F105A mutant | reference: wild type | change in Emax | -17.4% and -30.2% and -20.4% |
| Cn1nnnc1NCc1nn(C)c2nc(N)[nH]c(=O)c2c1=O | folP | CETSA HiBiT | whole cells | – | – | melting temperature | 63.9 °C |
| CCC1(CC)C(=O)N(c2cccc(CN3CCN(Cc4ccc(C)c5ccccc45)CC3)c2)C1=O.O=C(O)C(F)(F)F | Dipeptidyl peptidase 9 (DPP9, Homo sapiens, UniProt Q86TI2) | enzyme activity, inhibitor | – | 5 µM | – | activity vs control | 54% |
| CCCCCCCCCCCCC/C=C/C=O | Bridging integrator 3 (BIN3, Homo sapiens, UniProt Q9NQY0) | competitive isoTOP-ABPP, measured: BIN3 cysteine peptide | Ramos soluble proteome | 100 µM, with: iodoacetamide probe | reference: DMSO over compound-treated, higher = stronger cysteine blockade | isoTOP-ABPP competition ratio | 1.2 |
| Cn1nc(CC(=O)O)c(=O)c2c(=O)[nH]c(N)nc21 | folP | CETSA HiBiT | Escherichia coli, cell lysate | concentration not given | reference: DMSO | melting temperature shift | 23.3 °C |
| Cc1ccc2c(c1)C(=Cc1sc3ccccc3[n+]1C)C=CN2C | T1, RNA aptamer | fluorescence titration | – | – | – | Kd | 1.97 nM |
| CC[C@@H](C)[C@@H](NC(=O)[C@@H](Cc1ccc(O)cc1)NC(=O)[C@H]1CCCN1C(=O)[C@@H](CCCNC(=N)N)NC(=O)[C@H](N)Cc1c[nH]cn1)C(=O)N[C@H](C)C(=O)N[C@H](Cc1c[nH]cn1)C(=O)N[C@H](CCCNC(=N)N)C(=O)N[C@@H](C(=O)N[C@H](Cc1ccc(O)cc1)C(=O)N[C@H](CO)C(=O)N[C@H](Cc1ccccc1)C(=O)NCC(=O)NCC(=O)NCC(=O)N[C@@H](CCCCNC(=O)CCCC[C@@H]1SC[C@@H]2NC(=O)N[C@@H]21)C(N)=O)C(C)C | Programmed cell death 1 ligand 1 (CD274, Homo sapiens, UniProt Q9NZQ7) | flow cytometry | hPD-L1-expressing cells | concentration not given | – | binding rate | 15% and 14.7% |
| O=C(CCl)N[C@@H](Cc1ccccc1)C(=O)N1CCCC[C@H]1C(=O)NCCc1c[nH]c2cc(Cl)cc(Cl)c12 | Peptidyl-prolyl cis-trans isomerase NIMA-interacting 1 (PIN1, Homo sapiens, UniProt Q13526) | protein denaturation, thermal shift | – | – | – | second transition share | 30% |
| COc1cc(Nc2nccc(-c3cnn4nc(OC)ccc34)n2)cc(C(F)(F)F)c1 | Receptor-type tyrosine-protein kinase FLT3, autoinhibited (FLT3, Homo sapiens, UniProt P36888) | binding, competition with immobilised ligand | – | 1 µM | – | remaining binding | 94% |
| C[C@@H](Nc1nc(N[C@H](C)C(F)(F)F)nc(-c2cccc(Cl)n2)n1)C(F)(F)F | Isocitrate dehydrogenase [NADP], mitochondrial (IDH2, Homo sapiens, UniProt P48735, R172K) | – | – | 16 h preincubation | – | maximum inhibition | 61.6 ± 3.7% |
| CC1(C)CC[C@@]2(CO)C(=C3C=C[C@@H]4[C@@]5(C)CC[C@H](O)[C@@](C)(CO)[C@@H]5CC[C@@]4(C)[C@]3(C)C[C@@H]2O)C1 | NAD-dependent protein deacetylase sirtuin-1 (SIRT1, Homo sapiens, UniProt Q96EB6) | binding, microscale thermophoresis | – | 32.7 nM | – | MST normalised fluorescence | 910 a.u. |
| CNC(=O)C1CCN(c2cc(C)c(F)cc2NC(=O)c2ccc(-c3cc(O)ccc3C)c(C)c2)CC1 | Tyrosine-protein kinase ABL1, non-phosphorylated (ABL1, Homo sapiens, UniProt P00519, T315I) | binding, competition with immobilised ligand | – | 1 µM | – | remaining binding | 100% |
| CCCCCCCCCCCCOc1c(O)cc(C(=O)OC2Cc3c(O)cc(O)cc3OC2c2cc(O)c(O)c(O)c2)cc1O (stereo not shown) | Albumin (ALB, Homo sapiens, UniProt P02768) | Scatchard plot | – | concentration not given, with: 10 µM HSA | – | number of binding sites | 1.36 |
| CCOC(=O)Cc1n[nH]c2nc(N)[nH]c(=O)c2c1=O | folP | CETSA HiBiT | Escherichia coli, whole cells | concentration not given | reference: whole cell over lysate ΔTm | target engagement efficiency | 18.7% |
| CC(=O)N[C@@H]1[C@@H](O[C@@H]2O[C@H](C(=O)O)[C@@H](O[C@@H]3O[C@H](COS(=O)(=O)O)[C@@H](OS(=O)(=O)O)[C@H](O[C@@H]4O[C@H](C(=O)O)[C@@H](OS(=O)(=O)O)[C@H](OS(=O)(=O)O)[C@H]4OS(=O)(=O)O)[C@H]3NC(C)=O)[C@H](OS(=O)(=O)O)[C@H]2OS(=O)(=O)O)[C@H](OS(=O)(=O)O)[C@@H](COS(=O)(=O)O)O[C@H]1N=[N+]=[N-] | Interleukin-10 (Il10, Mus musculus, UniProt P18893) | ITC | – | concentration not given, concentrations 10 and 20 µM | – | binding stoichiometry | 0.217 and 0.212 |
| Cc1ccc(C(=O)Nc2ccc(CN3CCN(C)CC3)c(C(F)(F)F)c2)cc1C#Cc1cnc2cccnn12 | Serine/threonine-protein kinase TNNI3K (TNNI3K, Homo sapiens, UniProt Q59H18) | target engagement, NanoBRET | human cells | – | – | upper asymptote | 96.6 |
| CC(C(=O)O)c1nn(C)c2nc(N)[nH]c(=O)c2c1=O (stereo not shown) | folP | CETSA HiBiT | Escherichia coli, whole cells | concentration not given | reference: DMSO | melting temperature shift | 8.36 °C |

Excerpt of the above:
| SMILES | target | test | test system | setting | scale | endpoint | result |
| --- | --- | --- | --- | --- | --- | --- | --- |
| CC1(C)CC[C@@]2(CO)C(=C3C=C[C@@H]4[C@@]5(C)CC[C@H](O)[C@@](C)(CO)[C@@H]5CC[C@@]4(C)[C@]3(C)C[C@@H]2O)C1 | NAD-dependent protein deacetylase sirtuin-1 (SIRT1, Homo sapiens, UniProt Q96EB6) | binding, microscale thermophoresis | – | 32.7 nM | – | MST normalised fluorescence | 910 a.u. |
| CNC(=O)C1CCN(c2cc(C)c(F)cc2NC(=O)c2ccc(-c3cc(O)ccc3C)c(C)c2)CC1 | Tyrosine-protein kinase ABL1, non-phosphorylated (ABL1, Homo sapiens, UniProt P00519, T315I) | binding, competition with immobilised ligand | – | 1 µM | – | remaining binding | 100% |
| CCCCCCCCCCCCOc1c(O)cc(C(=O)OC2Cc3c(O)cc(O)cc3OC2c2cc(O)c(O)c(O)c2)cc1O (stereo not shown) | Albumin (ALB, Homo sapiens, UniProt P02768) | Scatchard plot | – | concentration not given, with: 10 µM HSA | – | number of binding sites | 1.36 |
